Published values from different studies.
Numbered parts are unrelated; each lists some results of a single study.
Sequence of UniProt P14616 (whole entry, looked up): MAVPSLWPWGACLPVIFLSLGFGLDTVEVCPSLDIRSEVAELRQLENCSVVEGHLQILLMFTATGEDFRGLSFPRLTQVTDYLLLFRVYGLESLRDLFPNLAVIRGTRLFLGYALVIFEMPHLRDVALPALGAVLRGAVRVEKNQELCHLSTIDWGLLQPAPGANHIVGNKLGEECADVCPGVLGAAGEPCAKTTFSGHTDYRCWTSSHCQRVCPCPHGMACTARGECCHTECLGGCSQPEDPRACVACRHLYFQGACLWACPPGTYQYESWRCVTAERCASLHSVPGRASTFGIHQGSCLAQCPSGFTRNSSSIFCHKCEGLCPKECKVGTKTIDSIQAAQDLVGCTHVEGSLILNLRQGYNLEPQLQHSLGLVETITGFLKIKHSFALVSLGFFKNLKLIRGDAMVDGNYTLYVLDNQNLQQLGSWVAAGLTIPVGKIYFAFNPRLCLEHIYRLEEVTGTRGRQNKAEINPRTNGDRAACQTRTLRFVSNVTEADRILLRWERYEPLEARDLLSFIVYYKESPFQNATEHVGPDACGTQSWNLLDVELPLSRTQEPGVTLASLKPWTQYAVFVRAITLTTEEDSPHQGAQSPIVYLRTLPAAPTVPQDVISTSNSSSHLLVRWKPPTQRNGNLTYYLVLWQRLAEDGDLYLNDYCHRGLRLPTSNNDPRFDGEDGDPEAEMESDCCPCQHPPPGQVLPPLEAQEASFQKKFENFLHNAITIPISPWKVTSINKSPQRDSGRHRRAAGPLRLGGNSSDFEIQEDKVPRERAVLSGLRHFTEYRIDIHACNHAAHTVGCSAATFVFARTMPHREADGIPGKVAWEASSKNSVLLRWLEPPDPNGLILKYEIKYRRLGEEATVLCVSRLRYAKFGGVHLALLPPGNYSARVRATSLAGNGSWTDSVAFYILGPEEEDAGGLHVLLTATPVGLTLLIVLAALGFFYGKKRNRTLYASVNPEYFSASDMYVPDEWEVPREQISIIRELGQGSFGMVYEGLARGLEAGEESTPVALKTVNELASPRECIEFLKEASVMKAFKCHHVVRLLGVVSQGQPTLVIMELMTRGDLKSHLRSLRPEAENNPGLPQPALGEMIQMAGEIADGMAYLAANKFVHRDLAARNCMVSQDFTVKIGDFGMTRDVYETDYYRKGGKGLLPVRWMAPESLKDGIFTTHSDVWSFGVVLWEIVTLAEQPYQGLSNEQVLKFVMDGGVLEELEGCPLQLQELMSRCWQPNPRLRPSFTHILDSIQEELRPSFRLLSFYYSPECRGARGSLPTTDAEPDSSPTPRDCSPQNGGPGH
Sequence of UniProt P53779 (whole entry, looked up): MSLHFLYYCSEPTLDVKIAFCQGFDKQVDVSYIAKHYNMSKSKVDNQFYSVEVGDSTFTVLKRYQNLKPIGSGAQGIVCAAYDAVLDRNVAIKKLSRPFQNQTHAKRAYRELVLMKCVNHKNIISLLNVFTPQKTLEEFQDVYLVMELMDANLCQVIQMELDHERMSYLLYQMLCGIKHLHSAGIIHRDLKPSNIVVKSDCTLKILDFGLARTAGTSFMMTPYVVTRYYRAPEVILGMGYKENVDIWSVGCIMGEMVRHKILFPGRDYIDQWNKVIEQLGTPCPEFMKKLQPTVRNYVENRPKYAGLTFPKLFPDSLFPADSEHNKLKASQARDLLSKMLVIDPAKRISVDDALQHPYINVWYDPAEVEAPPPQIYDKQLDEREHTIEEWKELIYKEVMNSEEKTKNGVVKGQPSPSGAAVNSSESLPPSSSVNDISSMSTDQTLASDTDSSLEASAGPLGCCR
Sequence of UniProt P42336 (whole entry, unmodified, looked up): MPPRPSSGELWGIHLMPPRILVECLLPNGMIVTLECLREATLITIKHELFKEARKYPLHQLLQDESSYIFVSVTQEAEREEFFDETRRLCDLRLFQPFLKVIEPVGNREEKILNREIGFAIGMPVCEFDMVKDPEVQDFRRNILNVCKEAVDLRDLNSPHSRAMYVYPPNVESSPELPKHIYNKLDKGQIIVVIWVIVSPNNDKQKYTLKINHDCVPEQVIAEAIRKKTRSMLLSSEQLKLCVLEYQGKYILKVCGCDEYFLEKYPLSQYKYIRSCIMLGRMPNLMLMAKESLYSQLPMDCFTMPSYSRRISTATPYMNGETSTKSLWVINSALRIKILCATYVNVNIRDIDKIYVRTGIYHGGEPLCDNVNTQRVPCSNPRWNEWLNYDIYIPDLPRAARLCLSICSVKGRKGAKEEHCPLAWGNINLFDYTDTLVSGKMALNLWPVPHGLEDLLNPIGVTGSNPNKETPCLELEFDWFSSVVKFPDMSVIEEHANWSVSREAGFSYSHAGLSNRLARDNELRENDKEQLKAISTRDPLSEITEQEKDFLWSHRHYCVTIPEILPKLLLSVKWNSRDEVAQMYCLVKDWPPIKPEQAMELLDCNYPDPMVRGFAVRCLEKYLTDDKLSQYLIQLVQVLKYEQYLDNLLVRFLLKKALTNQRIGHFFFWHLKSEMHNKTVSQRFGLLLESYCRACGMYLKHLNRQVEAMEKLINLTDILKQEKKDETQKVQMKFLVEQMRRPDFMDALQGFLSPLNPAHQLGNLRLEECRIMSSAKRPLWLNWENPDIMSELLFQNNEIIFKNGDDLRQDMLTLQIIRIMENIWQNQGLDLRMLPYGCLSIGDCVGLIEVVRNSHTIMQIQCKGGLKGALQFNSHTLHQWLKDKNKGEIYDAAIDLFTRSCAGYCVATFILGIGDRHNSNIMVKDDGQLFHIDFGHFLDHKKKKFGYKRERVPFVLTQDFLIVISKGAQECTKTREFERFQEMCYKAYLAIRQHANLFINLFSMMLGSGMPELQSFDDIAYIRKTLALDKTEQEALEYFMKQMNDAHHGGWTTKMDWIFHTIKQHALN
Sequence of UniProt P07949 (whole entry, unmodified, looked up): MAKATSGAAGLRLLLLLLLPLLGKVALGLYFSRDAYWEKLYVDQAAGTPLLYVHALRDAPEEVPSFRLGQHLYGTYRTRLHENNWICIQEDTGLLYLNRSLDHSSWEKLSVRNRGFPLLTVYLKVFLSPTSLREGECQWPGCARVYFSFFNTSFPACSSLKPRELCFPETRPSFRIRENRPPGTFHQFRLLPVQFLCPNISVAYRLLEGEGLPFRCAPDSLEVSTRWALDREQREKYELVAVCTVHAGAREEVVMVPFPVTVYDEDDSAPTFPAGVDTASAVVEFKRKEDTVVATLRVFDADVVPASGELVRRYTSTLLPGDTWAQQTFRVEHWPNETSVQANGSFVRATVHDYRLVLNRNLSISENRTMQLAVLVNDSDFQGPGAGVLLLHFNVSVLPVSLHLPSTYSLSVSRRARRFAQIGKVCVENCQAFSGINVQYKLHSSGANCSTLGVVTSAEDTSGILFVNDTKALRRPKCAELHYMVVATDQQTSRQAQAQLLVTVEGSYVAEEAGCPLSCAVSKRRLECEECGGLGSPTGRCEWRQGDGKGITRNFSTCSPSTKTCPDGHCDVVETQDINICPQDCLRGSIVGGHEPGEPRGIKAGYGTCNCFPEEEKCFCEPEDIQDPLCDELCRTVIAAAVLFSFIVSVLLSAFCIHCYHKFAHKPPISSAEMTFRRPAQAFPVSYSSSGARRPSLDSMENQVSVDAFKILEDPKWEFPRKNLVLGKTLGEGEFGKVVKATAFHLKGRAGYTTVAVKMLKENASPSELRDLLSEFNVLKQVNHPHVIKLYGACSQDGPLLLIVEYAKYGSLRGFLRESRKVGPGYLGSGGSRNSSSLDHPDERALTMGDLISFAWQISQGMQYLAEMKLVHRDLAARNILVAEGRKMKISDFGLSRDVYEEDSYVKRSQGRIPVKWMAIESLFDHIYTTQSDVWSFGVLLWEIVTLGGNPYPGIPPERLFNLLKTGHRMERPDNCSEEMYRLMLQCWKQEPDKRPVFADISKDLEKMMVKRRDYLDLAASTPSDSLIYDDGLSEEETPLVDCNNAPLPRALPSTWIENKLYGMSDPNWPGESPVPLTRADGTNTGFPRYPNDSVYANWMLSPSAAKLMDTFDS
Sequence of UniProt Q00536 (whole entry, looked up): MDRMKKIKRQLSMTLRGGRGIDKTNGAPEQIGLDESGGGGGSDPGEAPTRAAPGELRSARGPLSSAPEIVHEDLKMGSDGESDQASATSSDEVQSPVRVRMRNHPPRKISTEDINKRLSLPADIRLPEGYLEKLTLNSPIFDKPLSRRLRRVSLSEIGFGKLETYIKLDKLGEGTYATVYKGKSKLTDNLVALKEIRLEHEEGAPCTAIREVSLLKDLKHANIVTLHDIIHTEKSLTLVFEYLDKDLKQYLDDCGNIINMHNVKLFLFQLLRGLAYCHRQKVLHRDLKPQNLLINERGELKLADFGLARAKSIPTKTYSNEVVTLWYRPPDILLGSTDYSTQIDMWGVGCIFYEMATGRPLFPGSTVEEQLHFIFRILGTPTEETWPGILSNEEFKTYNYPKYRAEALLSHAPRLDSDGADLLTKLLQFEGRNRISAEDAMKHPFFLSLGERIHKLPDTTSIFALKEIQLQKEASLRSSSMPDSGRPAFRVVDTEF

Study 1
Target: RING finger protein unkempt homolog, zinc fingers 1-6, GST-SBP tag (UNK, Homo sapiens, UniProt Q9C0B0, residues 30-357)
Method: RNA Bind-n-Seq
Form: RNA
Matrix: in vitro
Tested at: not given
Notes: RNA with constant flanks, ends assumed
Baseline: input RNA pool
Direction: higher = stronger binding
Target sequence (chain): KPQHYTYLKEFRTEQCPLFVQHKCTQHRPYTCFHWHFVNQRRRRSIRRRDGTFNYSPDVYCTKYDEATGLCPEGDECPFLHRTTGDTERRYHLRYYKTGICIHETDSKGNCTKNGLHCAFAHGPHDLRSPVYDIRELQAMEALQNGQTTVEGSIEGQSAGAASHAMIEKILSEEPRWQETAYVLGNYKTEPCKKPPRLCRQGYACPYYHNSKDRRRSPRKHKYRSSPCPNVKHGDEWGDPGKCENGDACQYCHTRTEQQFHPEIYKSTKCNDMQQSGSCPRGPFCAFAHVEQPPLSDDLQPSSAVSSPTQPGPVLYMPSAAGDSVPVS
Strand | bound/input enrichment
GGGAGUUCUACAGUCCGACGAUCUGCAUGCUGCUGUUUGUGUUUGGCUUUGUUGGCGGGGCGGUGGUCAUUAAUUCUGCUAUCUCCGUAUCUCUCUCUGUUUUGCUGCUUGUGCACUUUUCUAUUUCUACCGGUGUGCCAGCUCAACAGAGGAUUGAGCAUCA | 0.481 ratio
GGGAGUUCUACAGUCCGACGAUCUCAGCUUCGGUGGACUGCUCCUCUGAUUUCUAAGCCUCCAAUUGGGCCUCUUUGAUACAAACCGAAGUCAGGUAUGUGACUUAAAUACUAAAAAUAUUAAUAUUCCCGUUUGAAUUCGAUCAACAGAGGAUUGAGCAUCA | 0.361 ratio
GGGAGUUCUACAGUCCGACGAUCUCAAGUGGACAUGAAGGAAGGGGUGGGGGGAGGGGCGGGUUUUUUUUUUUUCAAUAUAAGCCGCACAUGGUUUAAAUAUGAAUGACUGAACUUGUGAUCUAGUCCUUGUCUGGUAAUUGUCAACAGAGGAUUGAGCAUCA | 5.66 ratio
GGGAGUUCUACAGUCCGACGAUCGCCUGGCUAGUGGAUCAUGUCUAUGCUAUCCGUGAGGCUGCCACCAGCAACCUUAAGAAAUCCGCCGAGAAGUUCGGGAAGGAGUGGGCCCAUGCCACUAUCAUCCCCAAGGUCUUAGCCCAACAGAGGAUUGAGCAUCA | 0.0771 ratio
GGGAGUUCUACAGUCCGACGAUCGCAGAUGCAGUGGGGGUAACAGUUGUUCUGAUUACUUGCACCUACCGAGGUCAAGAAUUUAUCCGAGUUGGCUACUAUGUAAAUAAUGAAUACACUGAAACAGAAUUAAGGGAAAACCCACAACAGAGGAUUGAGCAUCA | 0.23 ratio
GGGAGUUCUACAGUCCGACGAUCUUUGAGUCACAUAAGGAUGAAAUAUUCCAGGUUCAGUGGUCACCUCACAAUGAGACUAUUUCCGCUUCCAGUGGUACUGAUCGCAGACUGAAUGUCUGGGAUUUAAGUAAAAUUGGAGAGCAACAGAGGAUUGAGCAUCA | 0.0924 ratio
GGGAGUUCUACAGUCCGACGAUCUACUGCUUUCAACUUAAAUCACUGAGGCAUUUUUACUACUAUUCUGUUAAAAUCAGGAUUUCCGUGCUUGCCACCACCAGAUGAGAAGUUAAGCAGCCUUUCUGUGGAGAGUGAGAAUAACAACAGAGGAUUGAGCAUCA | 0.127 ratio
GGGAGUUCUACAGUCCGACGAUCUUCAAUCCAUUGAAAGCAUCCGGGGAUGGAGAAUCACUGGAUGAAGAUUCUGAAUUCACAUCCGCCUCUGAUUUUGAAAUUGGACACUUUUUCCGUGAGCGGAUAGUCCCGCGGGCUGUGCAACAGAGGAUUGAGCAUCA | 0.29 ratio

Study 2
Target: Centromere-binding protein 1, full length, N-terminal tag (CBF1, Saccharomyces cerevisiae, UniProt P17106, residues 1-351)
Sequence of UniProt P17106 (whole entry, looked up): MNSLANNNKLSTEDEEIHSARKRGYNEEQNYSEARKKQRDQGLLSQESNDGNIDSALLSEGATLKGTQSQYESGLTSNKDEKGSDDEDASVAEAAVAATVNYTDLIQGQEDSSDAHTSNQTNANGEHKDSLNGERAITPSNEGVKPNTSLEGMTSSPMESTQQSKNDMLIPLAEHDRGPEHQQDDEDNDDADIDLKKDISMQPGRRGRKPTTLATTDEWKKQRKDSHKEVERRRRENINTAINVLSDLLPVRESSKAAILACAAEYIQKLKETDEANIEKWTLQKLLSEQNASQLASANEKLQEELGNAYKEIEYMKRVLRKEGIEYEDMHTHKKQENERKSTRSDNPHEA
Method: protein-binding microarray
Form: double-stranded DNA, one strand shown
Matrix: in vitro
Tested at: 0.8 µM
Notes: whole 60-bp probe, no competitor
Direction: higher = stronger binding
Strand | fluorescence intensity
GAAGGTATTCGTTAAATCGTGATAGTCATTTCCTAGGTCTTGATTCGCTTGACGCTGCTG | 588 a.u.
CTATTCCGAGATCCTCAGCTGACAAATAAATGTTTCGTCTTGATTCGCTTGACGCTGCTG | 968 a.u.
GAACCAAAGGAAGACGTGACCATTCTTAACAGTTAGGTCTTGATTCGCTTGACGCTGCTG | 1160 a.u.
CTAAAGATATAATATCACGAATTTGTTACTAATTTCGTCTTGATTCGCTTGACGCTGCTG | 538 a.u.
GAAAGCTTTATGAGTTCCGTCACGTTTCTTGTTTAGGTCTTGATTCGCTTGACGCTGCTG | 2090 a.u.
TGTACGAAGCTATCGCACGTAATTATAGTAGTTAGGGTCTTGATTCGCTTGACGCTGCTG | 502 a.u.
CTATTAATGACGAATCACGAAGAAAATATATCTTTCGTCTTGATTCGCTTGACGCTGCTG | 533 a.u.
GAACATAGATAGATAAACGTGCAATGAAATTCGTAGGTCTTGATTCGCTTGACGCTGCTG | 735 a.u.

Study 3
Structure (SMILES): C[C@H](c1cccc(C#N)c1)n1cc(Cl)cc(C(N)=O)c1=N
Effect on: cell-free assay
Method: competition with immobilised ligand
Tested at: 1 µM
target | remaining binding
Tyrosine-protein kinase ABL1, non-phosphorylated (ABL1, Homo sapiens, UniProt P00519, Q252H) | 100%
TLK1 (Homo sapiens, UniProt Q9UKI8) | 94%
PIK3CA (Homo sapiens, UniProt P42336, E545A) | 100%
EGFR (Homo sapiens, UniProt P00533) | 100%
EGFR (Homo sapiens, UniProt P00533, G719S) | 100%
CDK16 (Homo sapiens, UniProt Q00536) | 83%
RET (Homo sapiens, UniProt P07949, V804L) | 87%
MAPK10 (Homo sapiens, UniProt P53779) | 100%
INSRR (Homo sapiens, UniProt P14616) | 100%
GRK7 (Homo sapiens, UniProt Q8WTQ7) | 85%

Study 4
Target: Dual specificity tyrosine-phosphorylation-regulated kinase 3 (DYRK3, Homo sapiens, UniProt O43781)
Effect on: enzyme activity
Mode: inhibitor
Tested at: 0.5 µM
Baseline: control
Construct (O43781 1-588): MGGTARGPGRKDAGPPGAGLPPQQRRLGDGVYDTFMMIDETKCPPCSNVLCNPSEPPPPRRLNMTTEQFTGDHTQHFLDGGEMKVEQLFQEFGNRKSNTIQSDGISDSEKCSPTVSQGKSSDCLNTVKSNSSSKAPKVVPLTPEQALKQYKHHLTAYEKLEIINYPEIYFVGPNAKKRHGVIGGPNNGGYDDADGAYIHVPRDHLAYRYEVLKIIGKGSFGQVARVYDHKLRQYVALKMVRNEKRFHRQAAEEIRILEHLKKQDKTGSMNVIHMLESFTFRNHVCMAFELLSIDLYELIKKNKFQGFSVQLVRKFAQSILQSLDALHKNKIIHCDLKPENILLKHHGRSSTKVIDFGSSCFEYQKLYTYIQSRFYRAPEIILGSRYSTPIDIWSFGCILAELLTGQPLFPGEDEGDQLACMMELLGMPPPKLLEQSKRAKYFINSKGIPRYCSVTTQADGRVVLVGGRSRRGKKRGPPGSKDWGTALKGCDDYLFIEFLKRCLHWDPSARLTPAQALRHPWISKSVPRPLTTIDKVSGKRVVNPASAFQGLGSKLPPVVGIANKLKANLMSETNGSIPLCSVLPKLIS
Compound | remaining activity
O=C(Nc1cccc(Nc2nccc(Nc3cccc(C(F)(F)F)c3)n2)c1)C1CC1 | 101%
CCN(CC)CCNC(=O)c1c(C)[nH]c(/C=C2\C(=O)Nc3ccc(F)cc32)c1C | 58.2%
COc1cc2ncnc(Nc3cccc(Cl)c3)c2cc1OC | 96.3%
O=C1C(Cl)=C(N2C(=O)CCC2=O)C(=O)c2ccccc21 | 95.4%
Cc1cn(-c2cc(NC(=O)c3ccc(C)c(Nc4nccc(-c5cccnc5)n4)c3)cc(C(F)(F)F)c2)cn1 | 91.4%
Cn1nc2c3c(cccc31)C(=O)c1ccccc1-2 | 129%
Cc1nc2cc3nc(-c4cccs4)cnc3cc2n1C | 111%
c1ccc(-c2cnc(Nc3ccc(OCCN4CCCC4)cc3)s2)cc1 | 106%
O=C(NC(NC(=S)Nc1ccc(F)c([N+](=O)[O-])c1)C(Cl)(Cl)Cl)C(c1ccccc1)c1ccccc1 (centres unmarked) | 100%
O=C1c2ccccc2-c2n[nH]c3cccc1c23 | 102%
O=c1cc(-c2cccc3c2Sc2ccccc2S3)oc(N2CCOCC2)c1 | 84.3%
N#Cc1c(NC(=O)c2cccc3ccccc23)sc2c1CCCC2 | 128%
N#C/C(=C\c1ccc(O)c(O)c1)C(=O)NCc1ccccc1 | 99.6%
c1ccc(-c2[nH]ncc2-c2ccnc3ccccc23)nc1 | 104%
CN([C@@H](Cc1ccc(OS(=O)(=O)c2cccc3cnccc23)cc1)C(=O)N1CCN(c2ccccc2)CC1)S(=O)(=O)c1cccc2cnccc12 | 112%
CCN(CC)CCNC(=O)c1c(C)[nH]c(/C=C2\C(=O)Nc3ccc(Cl)cc32)c1C | 81.8%
Ic1cccc(CSc2nnc(-c3ccncc3)o2)c1 | 108%
Cc1cc2ncc(-c3ccccc3)nc2cc1C | 89.2%
COc1cc2ncnc(Nc3ccc(O)c(Br)c3)c2cc1OC | 95.3%
CCN(CC)C(=O)c1ccc(Nc2nc(OCC3CCCCC3)c3[nH]cnc3n2)cc1 | 97.6%
COc1cc2c(cc1OC)-c1[nH]nc(Nc3cccc(F)c3)c1C2 | 84.4%
CCOc1nc(NC(=O)Cc2cc(OC)ccc2OC)cc(N)c1C#N | 114%
CN(C)C[C@H]1CCn2c(c(C3=C(c4cn(C)c5ccccc45)C(=O)NC3=O)c3ccccc32)C1 | 102%
C[C@@H]1CCN(C(=O)CC#N)C[C@@H]1N(C)c1ncnc2[nH]ccc12 | 106%

Study 5
Organism: Sarcocystis neurona
Effect on: parasite growth
Tested at: 10 µM
Notes: secondary screen
Structure (SMILES) | inhibition [%]
c1ccc(CC2=NCCN2)cc1 | -26.2
Oc1c(Cl)cc(Cl)c2cccnc12 | 95.9
COc1ccc(-c2cc(=O)c3c(OC)c(OC)c(OC)c(OC)c3o2)cc1OC | 1.7

For quick reference, copied from above (study 4):
Compound | remaining activity
CCN(CC)CCNC(=O)c1c(C)[nH]c(/C=C2\C(=O)Nc3ccc(Cl)cc32)c1C | 81.8%
Ic1cccc(CSc2nnc(-c3ccncc3)o2)c1 | 108%
Cc1cc2ncc(-c3ccccc3)nc2cc1C | 89.2%
COc1cc2ncnc(Nc3ccc(O)c(Br)c3)c2cc1OC | 95.3%
CCN(CC)C(=O)c1ccc(Nc2nc(OCC3CCCCC3)c3[nH]cnc3n2)cc1 | 97.6%
COc1cc2c(cc1OC)-c1[nH]nc(Nc3cccc(F)c3)c1C2 | 84.4%
CCOc1nc(NC(=O)Cc2cc(OC)ccc2OC)cc(N)c1C#N | 114%
CN(C)C[C@H]1CCn2c(c(C3=C(c4cn(C)c5ccccc45)C(=O)NC3=O)c3ccccc32)C1 | 102%
